{"data": "Experimental data of several laboratories", "note": "Numbered parts are unrelated; each lists some results of a single study. Positions count from the first letter of the parent shown."}
{"data": "Sample 1", "target": "Sal-like protein 4, full length isoform A (SALL4, Homo sapiens, UniProt Q9UJQ4, residues 1-1053)", "method": "universal PBM", "molecule type": "double-stranded DNA, one strand shown", "sample": "in vitro", "concentration": "600 nM", "setting": "8-mer, flanks averaged, mean of replicates", "direction": "higher = stronger binding", "UniProt Q9UJQ4, sequence (whole entry, looked up)": "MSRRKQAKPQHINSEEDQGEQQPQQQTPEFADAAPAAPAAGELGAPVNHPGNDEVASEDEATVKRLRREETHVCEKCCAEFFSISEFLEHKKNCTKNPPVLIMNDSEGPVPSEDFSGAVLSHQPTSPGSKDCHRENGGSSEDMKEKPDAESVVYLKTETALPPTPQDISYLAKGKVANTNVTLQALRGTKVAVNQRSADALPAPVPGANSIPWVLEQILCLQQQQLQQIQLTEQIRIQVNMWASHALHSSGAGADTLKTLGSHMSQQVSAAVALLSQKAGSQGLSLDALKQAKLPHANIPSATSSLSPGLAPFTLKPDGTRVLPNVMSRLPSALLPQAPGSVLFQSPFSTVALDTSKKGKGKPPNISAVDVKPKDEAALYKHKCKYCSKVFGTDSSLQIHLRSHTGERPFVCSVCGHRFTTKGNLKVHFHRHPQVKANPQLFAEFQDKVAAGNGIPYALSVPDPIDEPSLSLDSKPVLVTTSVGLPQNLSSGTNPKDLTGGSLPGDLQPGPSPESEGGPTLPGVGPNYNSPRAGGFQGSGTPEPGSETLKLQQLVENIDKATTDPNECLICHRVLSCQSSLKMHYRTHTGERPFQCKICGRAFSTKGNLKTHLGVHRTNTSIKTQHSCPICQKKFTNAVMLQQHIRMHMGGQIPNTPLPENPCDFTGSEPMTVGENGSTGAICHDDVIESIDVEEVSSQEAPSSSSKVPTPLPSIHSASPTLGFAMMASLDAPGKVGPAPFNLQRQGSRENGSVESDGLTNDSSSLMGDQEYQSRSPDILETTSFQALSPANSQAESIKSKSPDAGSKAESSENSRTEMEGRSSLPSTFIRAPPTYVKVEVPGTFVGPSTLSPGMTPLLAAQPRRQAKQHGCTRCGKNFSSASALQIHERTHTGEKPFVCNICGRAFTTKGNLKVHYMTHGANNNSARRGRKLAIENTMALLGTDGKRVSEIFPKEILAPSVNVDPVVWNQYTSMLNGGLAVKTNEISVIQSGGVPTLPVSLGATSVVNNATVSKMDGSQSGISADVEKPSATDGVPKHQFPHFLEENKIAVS"}
{"Strand": "CCTCTTCG", "E-score": -0.106}
{"Strand": "ACTCGGGG", "E-score": -0.263}
{"Strand": "TGAGGGCA", "E-score": -0.0857}
{"Strand": "CTAGCATC", "E-score": -0.0423}
{"Strand": "CCGGTACG", "E-score": -0.269}
{"Strand": "CATCACAC", "E-score": -0.0397}
{"data": "Sample 2", "target": "Histone acetyltransferase KAT6A, winged helix 1, GST fusion (KAT6A, Homo sapiens, UniProt Q92794, residues 1-85)", "method": "protein binding microarray", "molecule type": "double-stranded DNA, one strand shown", "sample": "in vitro", "concentration": "not given", "setting": "8-mer, flanks averaged, mean of 2 arrays, mostly near background", "relative to": "not given", "direction": "higher = stronger binding", "Residues (chain)": "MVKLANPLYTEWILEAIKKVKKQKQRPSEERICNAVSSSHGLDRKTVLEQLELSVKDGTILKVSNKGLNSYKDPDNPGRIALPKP"}
{"Strand": "GACGCTAA", "E-score": 0.188}
{"Strand": "AGTTGTAC", "E-score": 0.0942}
{"Strand": "ACAGGCGT", "E-score": -0.0564}
{"Strand": "ACACTTCG", "E-score": -0.174}
{"Strand": "ACCCGCTA", "E-score": 0.235}
{"Strand": "GACCGATA", "E-score": 0.073}
{"Strand": "CCCGATAC", "E-score": 0.015}
{"Strand": "AGACTTCG", "E-score": -0.207}
{"data": "Sample 3", "target": "ABI1, truncated, D143A, DHFR fusion (Arabidopsis thaliana)", "method": "DHFR PCA, deep sequencing", "sample": "yeast", "setting": "methotrexate growth selection, single substitutions", "added": "(+)-ABA 1.4 µM", "relative to": "wild-type fitted maximum", "direction": "higher = stronger binding", "parent": "PYL1, truncated, DHFR fusion (Arabidopsis thaliana); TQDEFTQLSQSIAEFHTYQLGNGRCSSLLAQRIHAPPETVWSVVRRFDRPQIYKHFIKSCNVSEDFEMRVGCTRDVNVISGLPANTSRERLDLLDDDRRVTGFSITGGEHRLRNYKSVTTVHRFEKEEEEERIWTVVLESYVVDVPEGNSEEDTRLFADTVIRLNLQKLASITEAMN; partner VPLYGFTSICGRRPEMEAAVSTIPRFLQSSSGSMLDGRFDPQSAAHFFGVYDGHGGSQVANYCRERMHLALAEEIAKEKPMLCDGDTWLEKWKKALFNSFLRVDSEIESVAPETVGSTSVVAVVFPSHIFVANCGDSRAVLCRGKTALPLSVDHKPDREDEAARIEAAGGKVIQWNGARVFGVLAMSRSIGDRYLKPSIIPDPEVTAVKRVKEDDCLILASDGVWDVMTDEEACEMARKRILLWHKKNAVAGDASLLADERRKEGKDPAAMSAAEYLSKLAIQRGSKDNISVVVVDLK"}
{"Variant": "Y115S", "relative binding score [%]": 2.36}
{"Variant": "K168Y", "relative binding score [%]": 17}
{"Variant": "N177E", "relative binding score [%]": 65.3}
{"Variant": "D159L", "relative binding score [%]": -20.5}
{"Variant": "S9V", "relative binding score [%]": 46.2}
{"Variant": "T160D", "relative binding score [%]": 7.78}
{"Variant": "A30K", "relative binding score [%]": 52.4}
{"data": "Single results of other studies"}
{"Molecule": "PhoQ, residues 284 288 289 292 302 303 TTCLQL", "target": "PhoP, residues 12 14 15 18 19 NNFVT (Escherichia coli, UniProt P23836)", "assay": "Sort-seq, measured: YFP reporter", "system": "E. coli", "conditions": "PhoQ-PhoP variant library, added: 10 µM Mg2+", "scale": "relative to: high Mg2+ state, higher = stronger signaling", "measurement": "fold induction", "value": 22.3}
{"note": "Excerpt of the above (sample 3):"}
{"Variant": "Y115S", "relative binding score [%]": 2.36}
{"Variant": "K168Y", "relative binding score [%]": 17}
